Results collected from several papers.
Numbered parts are unrelated; each lists some results of a single study. Substitutions count along the parent as printed.

Block 1
Target: Protein max, full length (MAX, Homo sapiens, UniProt P61244-2, residues 1-151)
Method: protein-binding microarray
Form: double-stranded DNA, one strand shown
Sample: in vitro
Tested at: not given
Notes: k-mer, scored over probes, only values ≥0.25
Reading: higher = stronger binding
`CGTGCGGC` has an E-score of 0.378.
The E-score of `ACAGCGTG` is reported as 0.454.
The E-score of `ACACGTTC` is reported as 0.364.
For `CCGTGTGC`, the E-score was 0.299.
The E-score of `GTGACAGA` is reported as 0.276.
For `CATGGCAG`, the E-score was 0.361.
With `CGGCCACG` the E-score was 0.338.
`CACATGTA` has an E-score of 0.476.

Block 2
Target: ABI1, truncated, D143A, DHFR fusion (Arabidopsis thaliana)
Method: DHFR PCA, deep sequencing
Sample: yeast
Notes: methotrexate growth selection, single substitutions
With: (+)-ABA 200 µM
Relative to: wild-type fitted maximum
Reading: higher = stronger binding
Starting sequence: PYL1, truncated, DHFR fusion (Arabidopsis thaliana); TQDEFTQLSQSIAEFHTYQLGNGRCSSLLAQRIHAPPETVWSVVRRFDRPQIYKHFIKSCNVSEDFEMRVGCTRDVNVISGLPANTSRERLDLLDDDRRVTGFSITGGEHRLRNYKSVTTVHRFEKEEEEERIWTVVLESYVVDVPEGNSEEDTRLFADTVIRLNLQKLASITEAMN; partner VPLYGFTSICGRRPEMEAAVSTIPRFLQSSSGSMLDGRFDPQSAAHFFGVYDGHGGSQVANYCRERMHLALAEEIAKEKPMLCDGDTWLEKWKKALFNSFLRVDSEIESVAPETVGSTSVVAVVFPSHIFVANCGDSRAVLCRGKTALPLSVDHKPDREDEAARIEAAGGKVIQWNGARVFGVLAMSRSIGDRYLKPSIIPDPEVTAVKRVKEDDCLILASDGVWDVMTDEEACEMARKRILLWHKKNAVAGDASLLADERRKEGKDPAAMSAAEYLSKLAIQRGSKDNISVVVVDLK
For `F5A`, “relative binding score” read 89.9%.
`F15C` — result for “relative binding score”: 81.7%.
`N77P`: “relative binding score” 9.36%.
For `D75I`, “relative binding score” read 105%.
For `H55T`, “relative binding score” read 103%.
`I57S` — result for “relative binding score”: 12%.
Under “relative binding score”, `R24E` is recorded as 98.8%.
Under “relative binding score”, `Q167L` is recorded as 96.7%.

Block 3
Target: Hepatocyte nuclear factor 3-alpha (Foxa1, Mus musculus, UniProt P35582, residues 1-468, full length assumed)
UniProt P35582, sequence (whole entry, looked up): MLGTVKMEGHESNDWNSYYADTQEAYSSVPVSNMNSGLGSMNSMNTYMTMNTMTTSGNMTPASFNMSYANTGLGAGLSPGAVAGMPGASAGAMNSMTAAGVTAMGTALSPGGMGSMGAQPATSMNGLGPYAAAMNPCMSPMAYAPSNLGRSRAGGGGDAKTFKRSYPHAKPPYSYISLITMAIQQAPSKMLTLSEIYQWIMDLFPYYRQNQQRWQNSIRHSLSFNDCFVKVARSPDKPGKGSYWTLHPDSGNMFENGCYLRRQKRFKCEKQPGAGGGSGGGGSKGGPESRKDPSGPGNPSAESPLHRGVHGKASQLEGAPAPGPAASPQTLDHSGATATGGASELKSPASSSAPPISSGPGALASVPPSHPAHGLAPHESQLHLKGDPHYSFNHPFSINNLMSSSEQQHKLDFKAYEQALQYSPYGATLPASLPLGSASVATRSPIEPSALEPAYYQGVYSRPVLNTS
Method: EMSA with sequencing
Form: double-stranded DNA, one strand shown
Sample: in vitro
Tested at: 10 and 20 nM
Notes: whole designed probe, mean of two concentrations, ends assumed
Relative to: negative control set to 0
Reading: higher = stronger binding
`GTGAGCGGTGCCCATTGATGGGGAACGCTATGTTGCCCAGGCTGGTCTTGAACTCCTGGCCTCAGGCTGTCCTCCTGCTTTGGCCTCTCAAAGTGCTGTGATTACAGGCATGAGCCACTGTAAACACAGTATTTAAATAAGCAATCCTCACACTGGGAGGGAGTGAAGGATGCCCCTCTTTGCCCTGGAAGGTACATCAGAAAAAGCCTACCAGTGGGCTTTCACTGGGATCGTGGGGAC` — result for “normalised bound fraction”: 0.188 ratio.
`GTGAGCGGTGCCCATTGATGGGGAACCAGCTTGGGGCAGACAGTTGTTAGGAGATAAAACTCTTAGCTGCTGGAGTTCTGGGCTTTATTTCTTCTTCAACAAAGCTCTGACTCAGTTAGGTAATCTCAGGCACTAGCAAGCCTGATCATTTCCAGAGAGTTCCCCAGGGACAGACACAAAGGAATACAGAAGATAATAGATTAATTAAACATGCTGCCCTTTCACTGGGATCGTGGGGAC`: “normalised bound fraction” 0.0167 ratio.
Under “normalised bound fraction”, `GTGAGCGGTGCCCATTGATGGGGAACGAAAAGTGCAAAGCGTTGGCATCTGGGTCCTTCGTGAAGCTGTGTGATTCTGGACTTTGGACTGTAGTCCACTGTAGCCTGCCTTCTCACTGTGTAATTTCATAACTACATGGGCTCCCGTGAGCTTGCCACACGCCACAGGCTATGCCTAATTCTACAAAGCCTGAAGGAAAAATACTGTGAAAAATACTTATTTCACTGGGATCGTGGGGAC` is recorded as 0.0158 ratio.
`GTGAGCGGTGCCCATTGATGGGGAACTTAAGAAAAGTTGAAACAGGAATTGCTTGATAATCTTGAAAATATGCATGTATGTATGTTTGTTTAATGACTAAATGTATACTATTTGAGAAAGTAAATAAGGAGGGTAGGGGGCAGAAGCCAGATTCAGATTTTTGTGTGATGAAGAATGAATAAATGAATGTTTAGGAGTTGAGGAAATGGAAGAAGTGTTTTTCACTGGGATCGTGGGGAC`: “normalised bound fraction” 0.497 ratio.
`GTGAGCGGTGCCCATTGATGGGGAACAAGTTGAATTGCTTGTCACGTACCATAGACTGAGGTCTGTGGCTGCAGTTGCCTGCCATTTCAGACAGATGATTCATCTTATAAACAGATTATGTAATTTTGTTATTGATAAATACAGTATGGTACTGTAAATGTATTTTCTCTTTATGATTTTCTTTAAAATATTTTTCTTTCTCGGCCAGCACTTTGGGAGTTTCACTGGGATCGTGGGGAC` — result for “normalised bound fraction”: 0.0334 ratio.
For `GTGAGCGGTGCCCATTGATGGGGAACAATTAAAAAAGAATAAATGTCAGTAGAACCTCATTAAGACAGGTCTGACATTTTAAATAAAATAGGAGAAAAATCCATGAATATTAAATCCCTGTTTACTTATCTTTCTGTAATATTTGTGATATGAATTTCTTCCAGGCATCCCATCTTTCACACATAATTTAACACTTGCATTACCTTACTTCCTCTAACCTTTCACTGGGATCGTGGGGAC`, “normalised bound fraction” read 0.366 ratio.
Under “normalised bound fraction”, `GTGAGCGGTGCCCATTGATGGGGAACTGATACAGAATTTCTCAGTATAATTACCTCCAGCCAGGTTGCTTTTTTAGCTCAAAAGAAAGATAAAAGGCGGAGTCCTGTAAATAAAGGGAATGTAAACATGGAGACTGAACCAAAGGCAAGTTACGGGGAGATAAGAATACCTGAAGAGAATTCGATTCAGCTTGATGGTTTTACAGAAGCATATGAAAGTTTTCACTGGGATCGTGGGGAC` is recorded as 0.288 ratio.
Under “normalised bound fraction”, `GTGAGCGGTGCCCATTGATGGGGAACATCTTCCCCCTCTTCCTTGCCCCACCAGCTCACCTTCCCGGGTTATTTGCAGATAGGAAAATAAATAAAGCCGGCATTCGTTAACCCTCTTCTGGCGCAAACTGCTGTTTGCTCTGCATCTAACATGGTCCTTACGCGACGCCAGGCTCCGGGAGAGCAAAGCACCGTGTCAGGCGCATGATCCGGGGTGGCCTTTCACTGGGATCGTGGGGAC` is recorded as 0.354 ratio.

Mixed results
Starting sequence: viral docking peptide; YKVKRRLVFGADD
Under “normalised enrichment score”, `R5A` is recorded as 0.319 (CCNB3, cyclin fold, Cln2 fusion (human); yeast growth competition, sequencing; yeast; strong parent motif; relative to: not given, higher = stronger binding).
